# Experimental data of several laboratories.
# Each line is one published result; not all experiments were run side by side. ± marks the error that the study gave.
Substance,assay,system,setting,scale,quantity,value
ClC(Cl)(Cl)Cl,,"Sprague-Dawley rat, male, liver","oral, 50 mg/kg, 24 h",direction not given,hepatocyte necrosis score,0
CCCCCOc1ccc(-c2ccc(-c3ccc(C(=O)N[C@H]4C[C@@H](O)[C@@H](O)NC(=O)[C@@H]5[C@@H](O)[C@@H](C)CN5C(=O)[C@H]([C@@H](C)O)NC(=O)[C@H]([C@H](O)[C@@H](O)c5ccc(O)cc5)NC(=O)[C@@H]5C[C@@H](O)CN5C(=O)[C@H]([C@@H](C)O)NC4=O)cc3)cc2)cc1,,adult patients,"iv, dose not given, 3, during treatment",,patients with hepatic adverse events,14%
O[C@H]1CCCN[C@@H]1CCCn1cnc2c(Cl)c(Cl)ccc21,,"healthy volunteers, urine","oral, 100 mg capsule single, geometric mean",,renal clearance (0-72 h),262 mL/min
Cc1ccc(Nc2nccc(N(C)c3ccc4c(C)n(C)nc4c3)n2)cc1S(N)(=O)=O,,"patients, plasma","oral, 800 mg, 24 h, fasted, geometric mean, together with: pantoprazole",,Cmin,26600 ng/mL
NC(=O)c1nc(F)c[nH]c1=O,UV-Vis spectrophotometry,supercritical CO2,"120 min, 328 K, 12 MPa, 506.85 kg/m^3",,solubility,15 µg/mL
CNC(=O)c1ccc(-c2cnn3ccc(C(=O)N(C)c4ccc(Cl)c(C(=O)OC)c4)cc23)cc1,,"beagle dogs, both sexes, plasma","oral, 50 mg/kg/day, day 14",,Cmax,38.7 ng/mL
CN[C@@](C)(C[18F])C(=O)O,,"SCID mouse SK-OV-3 xenograft, spleen","15 min, post injection",,tissue uptake,14 ± 0.7 %ID/g
CC(C)C[C@@H](N)C(=O)N[C@H]1C(=O)N[C@@H](CC(N)=O)C(=O)N[C@H]2C(=O)N[C@H]3C(=O)N[C@H](C(=O)N[C@H](C(=O)O)c4cc(O)cc(O)c4-c4cc3ccc4O)[C@H](O)c3ccc(c(Cl)c3)Oc3cc2cc(c3O[C@@H]2O[C@H](CO)[C@@H](O)[C@H](O)[C@H]2O[C@H]2C[C@](C)(N)[C@H](O)[C@H](C)O2)Oc2ccc(cc2Cl)[C@H]1O,,"New Zealand White rabbit, aqueous humour","continuous topical ocular, dose not given, 24 h",relative to: eye drops,AUC(0-24) ratio,~10 fold
COc1ccc2c3c1O[C@H]1C[C@@H](O)C=C[C@@]31CCN(C)C2,in situ brain perfusion,"CF-1 mouse, wild type, male","1 µM, pH 7.4",,brain uptake clearance Kin,19 mL/100 g/min
CCCCCCCCCCCCCC[N+](C)(C)C,substrate depletion,human liver microsomes,"0.5 µM, 0 to 3 h, 37 °C, together with: NADPH",,intrinsic clearance,0.088 mL/h/mg protein
Cc1cnc(C(=O)N[C@H]2CCCCC/C=C\[C@@H]3C[C@@]3(C(=O)NS(=O)(=O)C3CC3)NC(=O)[C@@H]3C[C@@H](Oc4nc5ccccc5c5ccccc45)CN3C2=O)cn1,,"healthy human volunteers, plasma","oral, dose not given, together with: omeprazole plus 2D regimen",,AUC(0-24),10300 ng·h/mL
CC(C)C[C@@H]1NC(=O)[C@@H]2CSSC[C@@H](C(=O)NCC(N)=O)NC(=O)[C@H](Cc3ccccc3)NC(=O)CNC(=O)[C@H](CC(N)=O)NC(=O)[C@@H]3CCCN3C(=O)CNC(=O)[C@@H]3CSSC[C@H](NC(=O)[C@H](CO)NC(=O)[C@H]([C@@H](C)O)NC(=O)[C@@H]4CCCN4C(=O)[C@H](C)NC(=O)[C@H](Cc4c[nH]c5ccccc45)NC(=O)[C@H](CC(=O)O)NC(=O)CNC(=O)[C@H](CCCNC(=N)N)NC(=O)CNC(=O)[C@H](CCC(N)=O)NC(=O)[C@@H]4CCCN4C(=O)[C@@H](NC(=O)CNC(=O)c4ccc(F)cc4)CSSC[C@H](NC(=O)CNC(=O)[C@H](C)NC1=O)C(=O)N[C@@H](C(C)C)C(=O)N3)C(=O)N[C@@H](CO)C(=O)N[C@@H](CCC(N)=O)C(=O)N[C@@H](CC(=O)O)C(=O)N[C@@H](CO)C(=O)N[C@@H](CC(=O)O)C(=O)N2 [fluorine-18 labelled],microPET imaging,"nude mice, U-87 MG xenograft, tumour","intravenous, 4.44 MBq, 0.5 h",,tumour uptake,2.6 ± 0.72 %ID/g
CSCC[C@@H]1NC(=O)[C@H](CC(=O)O)NC(=O)CNC(=O)[C@H](CCCNC(=N)N)NC(=O)[C@H](C)NC(=O)[C@H](CCC(=O)O)NC(=O)[C@H](CCCNC(=N)N)NC(=O)[C@@H]2CSSC[C@@H]3NC(=O)[C@H](CO)NC(=O)[C@H]([C@@H](C)O)NC(=O)[C@@H]4CCCN4C(=O)[C@H](C)NC(=O)[C@H](Cc4c[nH]c5ccccc45)NC(=O)[C@H](CC(=O)O)NC(=O)CNC(=O)[C@H](CCCNC(=N)N)NC(=O)CNC(=O)[C@H](CCC(N)=O)NC(=O)[C@@H]4CCCN4C(=O)[C@@H](NC(=O)CNC(=O)C(C)F)CSSC[C@H](NC(=O)CNC(=O)[C@H](C)NC(=O)[C@H](CC(C)C)NC(=O)[C@H](CSSC[C@@H](C(=O)NCC(N)=O)NC(=O)[C@H]([C@@H](C)O)NC(=O)[C@H](CCCNC(=N)N)NC(=O)[C@@H]4CCCN4C1=O)NC(=O)[C@H](CC(=O)O)NC(=O)[C@H](CO)NC(=O)[C@H](CC(=O)O)NC(=O)[C@H](CCC(N)=O)NC(=O)[C@H](CO)NC3=O)C(=O)N[C@@H](C(C)C)C(=O)N2 (some centres unmarked) [fluorine-18 labelled],,"nude mouse, U-87 MG xenograft, kidneys","intravenous, 2.5 h, together with: cyclo(RGDyK) co-injected",,tissue uptake,1.94 ± 0.75 %ID/g
CC[C@H](C)[C@H](NC(=O)[C@@H](N)CCCNC(=N)N)C(=O)N[C@H](C(=O)N1CCC[C@H]1C(=O)N[C@@H](C)C(N)=O)C(C)C,,"human, plasma","intravenous, 8 mg/kg, single dose, healthy volunteers",,MRT,4.2 min
CC(=O)N[C@H](CCCCNC(=O)C(C)F)C(=O)N[C@@H](CS)C(=O)N[C@@H](CS)C(=O)N[C@@H](CCC(=O)O)C(=O)N[C@@H](Cc1c[nH]cn1)C(=O)N[C@H](Cc1ccccc1)C(=O)N[C@@H](CCCNC(=N)N)C(=O)N[C@@H](Cc1c[nH]c2ccccc12)C(=O)N[C@@H](CS)C(=O)N[C@@H](CCCNC(=N)N)C(=O)N1CCC[C@H]1C(=O)N[C@H](C(N)=O)C(C)C (some centres unmarked) [fluorine-18 labelled],,"C57BL/6 mice, male, B16-F10 tumour, stomach","intravenous, 2 h",,tissue uptake,0.47 ± 0.24 %ID/g
teicoplanin,two-compartment population PK,ICU patients,"intravenous infusion, dose not given, 1 h infusion",,clearance,0.838 L/h
O=S(=O)(O)Oc1ccc(-c2cccc(Cl)c2)cc1Cl,,"rat Sprague-Dawley male, brain","intravenous, 575 µg/kg, 1 h, mean of detectable animals",,fraction of dose in brain,1.6%
O=C(c1ccc(F)c(F)c1Nc1ccc(I)cc1F)N1CC(O)([C@@H]2CCCCN2)C1,item: retinal detachment,human patients,"oral, 1 mg/kg, dose expansion, grade G1",,treatment-related adverse events,0%
CC(C)C[C@H](NC(=O)[C@H](CCC(=O)O)NC(=O)[C@H](CCC(=O)O)NC(=O)[C@H](CC(=O)O)NC(=O)[C@H](CCC(=O)O)NC(=O)[C@H](CCC(=O)O)NC(=O)[C@H](CCC(=O)O)NC(=O)[C@@H](N)CC(=O)O)C(=O)O,,"rat, CSF","intranasal, 5.5 mg/kg, 30 min",,concentration,1.13 ng/mL
CC(=O)N[C@H](C(=O)N[C@@H](CO)C(=O)N[C@@H](CCCNC(=N)N)C(=O)N[C@@H](CCCNC(=N)N)C(=O)N[C@@H](CCCNC(=N)N)C(N)=O)C(C)C,,healthy adults,"intravenous infusion, 1 mg/kg every 6 h, over 30 min, maximum among subjects",relative to: dose 13 over dose 1,AUC(tau) accumulation ratio,1.5
Clc1cc2c(cc1Cl)Oc1cc(Cl)c(Cl)cc1O2,GC-HRMS,"zebrafish embryos, whole embryo, dry weight","waterborne, 50 ppt, 24 hpf",,internal concentration,0.22 ppt
CC[C@@]1(O)C(=O)OCc2c1cc1n(c2=O)Cc2cc3c(CN(C)C)c(O)ccc3nc2-1,,"human patients, plasma","oral, 2.5 mg daily for 5 days, geometric mean, alone",,AUC(0-inf),45 ng·h/mL
[123I]c1cncc(OC[C@@H]2CCN2)c1,SPECT,"human, thalamus","intravenous bolus, 8.1 mCi",relative to: plasma,tissue/plasma ratio,27.5

# For quick reference, copied from above:
Substance,assay,system,setting,scale,quantity,value
[123I]c1cncc(OC[C@@H]2CCN2)c1,SPECT,"human, thalamus","intravenous bolus, 8.1 mCi",relative to: plasma,tissue/plasma ratio,27.5
Cc1cnc(C(=O)N[C@H]2CCCCC/C=C\[C@@H]3C[C@@]3(C(=O)NS(=O)(=O)C3CC3)NC(=O)[C@@H]3C[C@@H](Oc4nc5ccccc5c5ccccc45)CN3C2=O)cn1,,"healthy human volunteers, plasma","oral, dose not given, together with: omeprazole plus 2D regimen",,AUC(0-24),10300 ng·h/mL
O[C@H]1CCCN[C@@H]1CCCn1cnc2c(Cl)c(Cl)ccc21,,"healthy volunteers, urine","oral, 100 mg capsule single, geometric mean",,renal clearance (0-72 h),262 mL/min
